Experimental data collected from several papers.
Numbered parts are unrelated; each lists some results of a single study. Substitutions count along the parent as printed.

Study 1 — method: aptamer microarray, sandwich; molecule type: DNA with 2'F-ANA; sample: in vitro; tested at: 200 nM; with: Cy3 exosite-II aptamer, 400 nM; reading: higher = stronger binding; sequence: GGTTGGTGTGGTTGG
Target: Prothrombin, mature alpha-thrombin (F2, Homo sapiens, UniProt P00734)
Notes: whole 15-mer aptamer, many near background
Modification	mean fluorescence intensity
2'F-ANA at 2 4 5 6 8 9 12 14 15	46.8 a.u.
2'F-ANA at 4 6 7 8 12 13 14	145 a.u.
2'F-ANA at 1 3 4 8 10 11 12 13 14	77.4 a.u.
2'F-ANA at 2 4 5 7 10 11 12 13	48.8 a.u.
2'F-ANA at 2 3 4 5 6 8 9 10 11 12 13 14 15	61.4 a.u.
2'F-ANA at 2 4 7 8 9 13 15	209 a.u.
2'F-ANA at 4 5 6 8 9 10 13 14	44.3 a.u.
2'F-ANA at 1 2 4 5 7 15	55.7 a.u.
2'F-ANA at 1 2 6 8 10 13	48.6 a.u.
2'F-ANA at 1 4 5 6 7 10 11 14 15	58.6 a.u.
2'F-ANA at 1 7 10 12 13 14	56.4 a.u.
2'F-ANA at 2 4 6 8 9	347 a.u.
2'F-ANA at 1 2 5 10 12 14	47.7 a.u.
2'F-ANA at 4 14	99 a.u.
2'F-ANA at 1 2 3 4 6 8 12 13 14	72.4 a.u.

Study 2 — method: RNA Bind-n-Seq; molecule type: RNA; sample: in vitro; tested at: not given; baseline: input RNA pool; reading: higher = stronger binding
Target: RING finger protein unkempt homolog, zinc fingers 1-6, GST-SBP tag (UNK, Homo sapiens, UniProt Q9C0B0, residues 30-357)
Notes: RNA with constant flanks, human-mouse chimeric sites, ends assumed
All sequences stand within: GGGAGUUCUACAGUCCGACGAUC … CAACAGAGGAUUGAGCAUCA
Construct (chain): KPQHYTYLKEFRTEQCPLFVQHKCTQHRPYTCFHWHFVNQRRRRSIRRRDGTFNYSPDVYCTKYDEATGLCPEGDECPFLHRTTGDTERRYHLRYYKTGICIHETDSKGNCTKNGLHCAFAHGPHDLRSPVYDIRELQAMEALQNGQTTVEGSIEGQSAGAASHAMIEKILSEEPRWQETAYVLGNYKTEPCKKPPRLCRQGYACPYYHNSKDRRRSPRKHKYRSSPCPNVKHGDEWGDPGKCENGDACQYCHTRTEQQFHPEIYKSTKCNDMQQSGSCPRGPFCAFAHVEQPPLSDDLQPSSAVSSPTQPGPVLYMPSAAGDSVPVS
Sequence	bound/input enrichment [ratio]
UUAAUCCCCUUCGUUGCUCCCCCACUUCUCAUGGUAAUAACAAAGUCUUAUAUCCCCAUAUUAGCUUUCACUCAGAUGGCUUAUGGAGCCGGUUUCCUAGCUUUCUUGGGAGGGAUCAGA	0.461
GAUCAUGGAACCAGAAUAGAAAUGAAGAUGAGAUUACCCAGACGAGCCAAAACAGCUGCGCUACAGAAAAGUAAACUUAACCUUGCAGAGUUCCUUAAUGAAGAUACUAAGUUAGGAAGC	1
AACGUGGAACUAAGUUCCUUGGCCCGGCUUCCCAGCUUGAAUAAACUCCGGAAGUUGGAGCUUAGUGACAAUAUAAUUUCUGGAGGCUUGGAAGUCCUGGCAGAGAAAUGUCCAAAUCUU	0.149
CCCUCCCCGGGCCACCCGCCCGCCCAAGCUCCCCGCCAGAGCAAGGUUUUCUUCUUAUUUCAUAGCAAAUAAGAAAAAUGUUCUACGCACAUUUUGUCCUCAGUAAACGAGGGCCUCUGG	0.843
GUAGCUGGGACUACAGAAGAAUGCUGAAUUUCAGUCACUUGCUGAUGACUUCUGAUGUCCCAGCAAAUGUUGGCAUUGUUGACUGCUGAGAAGAUACUUCUGAGGACAUACAGCAGUGGU	0.101
AAAGAACUACUGAGGCAAGGCAGCAAAUUUAGGAGAGACAUUUCAACAAUAUUGAUAGAGUUAGGAUUCCAAAUUAAAAAGAAAACUAAGACAUUAUAUAUCAACAAAGCCAAUAUCUGG	10.9
UAAGUUAUUUUGUACAGUAAGUUAUUUUCUUAACAUUUUUAUAUUGCCAUGUUUAUUUUGUUUGGGUAAUUUGGUUCAUUAAGUACAAAACCAAAUAAAUGAACAUCUUUUUCAGUAAUU	4.04
UGACAAGGGCACUGCAGGGCCAUGCCUUUCCUUGACAUACAGAAAAAGCUGGGCAUCAGCCUGGACCGGCACUUUAUGUUCCUAAGCGGUGAACAGCCCUAUAAGAACGCCGCUCGGUGC	0.0947
CUGGGCUUCUCUUUUCUUUCUUUCCUUUAGGAAAAGCCUAAAGAUUAGUAAGAAAAGAAAACAGAAGCCAUGUUUCGAAGACCUGUGUUACAGGUAUUUCGUCAGUUUGUAAGACAUGAG	0.254
UUACCCGAAAAUGAAGAUGAGCUGGAGAGCACCAACAGGCGCUACACCAAGAGGGACUGCAGCACUUUUCUCAGAACUAGUGAGACGGGCAUCGUGGACCAGGUCAUGGUCACUCUCAAC	0.16

Study 3 — target: CCNB2, cyclin fold, Cln2 fusion (human); method: yeast growth competition, sequencing; sample: yeast; notes: weak parent motif; baseline: not given; reading: higher = stronger binding
Starting sequence: SGO1 docking peptide (human); PLAKRALKYTDEK
Variant	normalised enrichment score
Y9A	0.372
D11A	0.575
K13A	-0.0691

Study 4 — method: protein-binding microarray; molecule type: double-stranded DNA, one strand shown; sample: in vitro; tested at: 2200 nM top; notes: 60-bp whole probe; with: salmon DNA 0.4 mg/ml; baseline: random background probes; reading: higher = stronger binding; all sequences stand within: GCCTAGCAC … GTCTTGATTCGCTTGACGCTGCTG
Target: Interferon regulatory factor 7, full length, phosphomimetic (IRF7, Homo sapiens, UniProt Q92985, residues 1-503, S471D/S472D/S475D/S476D/S477D/S483D/S484D/S487D)
Sequence of UniProt Q92985 (whole entry, unmodified, looked up): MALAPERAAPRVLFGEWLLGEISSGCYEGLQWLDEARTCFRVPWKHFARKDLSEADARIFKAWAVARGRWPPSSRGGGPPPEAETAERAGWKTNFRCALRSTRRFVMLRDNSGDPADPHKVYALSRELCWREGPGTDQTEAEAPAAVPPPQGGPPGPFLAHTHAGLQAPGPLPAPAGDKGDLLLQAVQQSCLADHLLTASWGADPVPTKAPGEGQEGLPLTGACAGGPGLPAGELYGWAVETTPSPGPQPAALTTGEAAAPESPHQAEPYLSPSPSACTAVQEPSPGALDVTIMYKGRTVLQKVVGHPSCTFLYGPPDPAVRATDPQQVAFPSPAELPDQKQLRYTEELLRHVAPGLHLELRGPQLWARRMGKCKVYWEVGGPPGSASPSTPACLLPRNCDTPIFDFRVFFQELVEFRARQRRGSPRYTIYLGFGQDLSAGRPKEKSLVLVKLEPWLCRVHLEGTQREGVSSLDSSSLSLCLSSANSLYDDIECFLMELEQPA
Sequence	fitted relative affinity [z-score]
TCATCTCTAATTTTGAGACTGTGCTAG	0.594
GACGGATTGGACTATCGGGACGTGCTA	-0.0557
TTAGATCTCAGTCCCGATTAGTGCTAG	0.596
TGGATGGTCCTGGTTTCATGGGTGCTA	0.0239
GACGATCTCAGTTTCGTGACGTGCTAG	2.45
TCACTCCTCTAGGTTCTCACTGTGCTA	1.73
GACGATCTCAATTTCGAGACGTGCTAG	1.43
GACGAACTGGGGTTTCGTGACGTGCTA	0.677
TCAGATCTCAGACTGTGACTGTGCTAG	0.148
GACGTTTTCGGGACTGGAGACGTGCTA	3.2
GACGGTATCGGACTAGGGACGTGCTAG	-0.225
GACGGTATCGTCACTGGGGACGTGCTA	-0.347

Study 5 — method: protein binding microarray; molecule type: double-stranded DNA, one strand shown; sample: in vitro; tested at: not given; baseline: not given; reading: higher = stronger binding
Target: Histone acetyltransferase KAT6A, winged helix 1, GST fusion (KAT6A, Homo sapiens, UniProt Q92794, residues 1-85)
Notes: 8-mer, flanks averaged, mean of 2 arrays, mostly near background
Target sequence (chain): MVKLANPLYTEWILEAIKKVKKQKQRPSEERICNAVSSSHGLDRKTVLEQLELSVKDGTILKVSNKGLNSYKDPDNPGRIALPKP
Sequence	E-score
ACATCGAG	-0.143
ATCATAGA	-0.273
TGGTCACA	-0.0469
ATTAGCGC	0.36
GAGACGAC	-0.0492
CTCACAAC	-0.121
GAGTGCAA	-0.267
ACTGGACG	0.077
CACGGCAG	0.272
AACCTAAA	-0.0981
ATGTATTG	-0.00752
AGGCAGCC	-0.102
CGGGGCCA	0.113
AAAGCGGT	0.206
ACAAGTGT	-0.108

Study 6 — method: universal PBM; molecule type: double-stranded DNA, one strand shown; sample: in vitro; tested at: not given; reading: higher = stronger binding
Target: Sal-like protein 4, full length isoform B (SALL4, Homo sapiens, UniProt Q9UJQ4-2, residues 1-616)
Notes: 8-mer, flanks averaged, mean of replicates
Sequence	E-score
CCGTTTTA	0.058
GTACCGAC	-0.176
GACACATC	-0.0608
GCCGTAGC	-0.175
TCCGCACA	-0.0244
GTCGCGCA	-0.23
CAAGTGTC	0.0275
CACATCAG	-0.152
AATCGATG	0.0884
AAGTATCA	0.121
TCATGAGA	0.00325
CAGGGGAG	-0.156
GGACTCGA	-0.113
CCCGTCAC	-0.222
CGTAATGC	0.103
TACGCTAA	0.105
AGCCGAGC	-0.376
CCTGGAAG	-0.185
GTGGTTCA	0.0718
AGTCCTAC	-0.0681
ATGACTGA	-0.00653
CGCTACCG	-0.214
TCGCCCCA	-0.24
ACCGTGCT	-0.271
ACACATCT	0.0412

Study 7 — method: RNA Bind-n-Seq; molecule type: RNA; sample: in vitro; tested at: 365 nM; baseline: no-protein control; reading: higher = stronger binding
Target: RNA binding protein fox-1 homolog 2, RRM domain, GST-SBP tag (RBFOX2, Homo sapiens, UniProt O43251-10, residues 100-194)
Notes: natural RNA segment, single round, ends assumed
All sequences stand within: GGGAGUUCUACAGUCCGACGAUC … UGGAAUUCUCGGGUGCCAA
Target sequence (chain): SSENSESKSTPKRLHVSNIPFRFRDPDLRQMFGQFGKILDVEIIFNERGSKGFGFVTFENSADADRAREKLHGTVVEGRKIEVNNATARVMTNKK
Sequence	RBNS enrichment (R)
CCACGGAGUCCGGUGUGGGGGGUUUGGUUCUAACUGUCCUGGUGAUGCCUCUCUGAGUGGAAAUCUUAUUUUUGUAGAUCUGUACUUUGCUCUCGAGGCUUGGAGAGAUG	0.639
CCCCAGUGGUGGCAGCUGUUCCAUGCCUGCUCUGUUUCAGCUCUUCUGAGACAGGGAGGAGGAGCCAAGGGAGCUGUGAAGGGGAGGGGCAGGAGGACUCUUGCAGGGUU	0.483
AAAGUCGUGGAGGAGCUAACUCGGAUCCAUAGCCAAGGACAGGAUCUCUUUUCCUGACCCUCCCUAAAGGCGUUGCCCUCCUAUCCUCCCCUCCCUUGCCCACCCUUGUU	0.306
GCAAGAAGGAAAUAGCCACCGUCUACAGAUGGCUUAGUUAAGUCAUCCACAGCCCAAGGGCGGGGCUAUGCCUUGUCUGGGGACCCUGUAGAGUCACUGACCCUGGAGCG	0.436
CUCUUCACCUAAGUGUUUAUAACCAGCAGUACCCUGCUACAAGCCUUGGGUGCAGCCAUCACUGGAUUUUGAUCGUCAGGCCAGCAGGAUGGAUGACAUCUCAUUGAUAG	0.364
GAAGGAAAAAGAAAAAAGGGGCAAGGAGCCCCGCGGCGGCCUGGGCAGCGCCUGUGCAGACCUCCCUGCAGGCCGCACUGCCAACUGCUGCAUUUGUUGUGUUUUUUAGG	3.79
GCAGUUCAUUUCCAUUAGGCAGACGUAUAAACUAAGGAAUGUUAGUCUGCAGUAUUCAUUUUAAAAAUAUUGACAUGCUUUUCCCCUCCCCUCCAUGAAGUCAGUGCCAG	0.674
UUCAAACCAUCCCGGUGGCUGGGAUGCAAGCUCAAGUUUGAGAACCACUGGUUUUGUCCUGGUGUUUCCAGCACCAGAAUCCCAGCUUGGUGAGGUUUGAAGUUUCAGUG	0.473

Repeated from above (study 7):
Sequence	RBNS enrichment (R)
CCACGGAGUCCGGUGUGGGGGGUUUGGUUCUAACUGUCCUGGUGAUGCCUCUCUGAGUGGAAAUCUUAUUUUUGUAGAUCUGUACUUUGCUCUCGAGGCUUGGAGAGAUG	0.639
CCCCAGUGGUGGCAGCUGUUCCAUGCCUGCUCUGUUUCAGCUCUUCUGAGACAGGGAGGAGGAGCCAAGGGAGCUGUGAAGGGGAGGGGCAGGAGGACUCUUGCAGGGUU	0.483
AAAGUCGUGGAGGAGCUAACUCGGAUCCAUAGCCAAGGACAGGAUCUCUUUUCCUGACCCUCCCUAAAGGCGUUGCCCUCCUAUCCUCCCCUCCCUUGCCCACCCUUGUU	0.306
GCAAGAAGGAAAUAGCCACCGUCUACAGAUGGCUUAGUUAAGUCAUCCACAGCCCAAGGGCGGGGCUAUGCCUUGUCUGGGGACCCUGUAGAGUCACUGACCCUGGAGCG	0.436
CUCUUCACCUAAGUGUUUAUAACCAGCAGUACCCUGCUACAAGCCUUGGGUGCAGCCAUCACUGGAUUUUGAUCGUCAGGCCAGCAGGAUGGAUGACAUCUCAUUGAUAG	0.364
GAAGGAAAAAGAAAAAAGGGGCAAGGAGCCCCGCGGCGGCCUGGGCAGCGCCUGUGCAGACCUCCCUGCAGGCCGCACUGCCAACUGCUGCAUUUGUUGUGUUUUUUAGG	3.79
GCAGUUCAUUUCCAUUAGGCAGACGUAUAAACUAAGGAAUGUUAGUCUGCAGUAUUCAUUUUAAAAAUAUUGACAUGCUUUUCCCCUCCCCUCCAUGAAGUCAGUGCCAG	0.674
UUCAAACCAUCCCGGUGGCUGGGAUGCAAGCUCAAGUUUGAGAACCACUGGUUUUGUCCUGGUGUUUCCAGCACCAGAAUCCCAGCUUGGUGAGGUUUGAAGUUUCAGUG	0.473
